Results of several laboratories.
Each line is one published result; not all experiments were run side by side.
PLAT: Tissue-type plasminogen activator (PLAT, Homo sapiens, UniProt P00750)
Sequence of UniProt P00750 (whole entry, looked up): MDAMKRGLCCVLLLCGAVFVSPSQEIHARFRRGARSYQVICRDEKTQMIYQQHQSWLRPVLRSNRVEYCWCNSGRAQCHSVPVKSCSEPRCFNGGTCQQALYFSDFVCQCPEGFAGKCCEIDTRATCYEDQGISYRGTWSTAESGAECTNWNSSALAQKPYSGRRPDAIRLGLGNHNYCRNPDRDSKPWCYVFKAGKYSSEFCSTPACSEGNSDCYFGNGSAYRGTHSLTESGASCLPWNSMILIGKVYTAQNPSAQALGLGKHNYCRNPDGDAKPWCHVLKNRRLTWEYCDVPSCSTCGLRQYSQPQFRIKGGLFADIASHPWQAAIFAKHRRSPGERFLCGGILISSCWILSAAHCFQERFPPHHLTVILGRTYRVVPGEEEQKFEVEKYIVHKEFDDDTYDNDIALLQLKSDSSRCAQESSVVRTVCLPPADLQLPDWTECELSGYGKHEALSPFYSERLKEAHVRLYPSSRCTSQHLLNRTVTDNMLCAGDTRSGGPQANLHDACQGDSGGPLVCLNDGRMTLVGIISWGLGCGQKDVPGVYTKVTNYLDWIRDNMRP
HDAC3: Histone deacetylase 3 (HDAC3, Homo sapiens, UniProt O15379)
Sequence of UniProt O15379 (whole entry, looked up): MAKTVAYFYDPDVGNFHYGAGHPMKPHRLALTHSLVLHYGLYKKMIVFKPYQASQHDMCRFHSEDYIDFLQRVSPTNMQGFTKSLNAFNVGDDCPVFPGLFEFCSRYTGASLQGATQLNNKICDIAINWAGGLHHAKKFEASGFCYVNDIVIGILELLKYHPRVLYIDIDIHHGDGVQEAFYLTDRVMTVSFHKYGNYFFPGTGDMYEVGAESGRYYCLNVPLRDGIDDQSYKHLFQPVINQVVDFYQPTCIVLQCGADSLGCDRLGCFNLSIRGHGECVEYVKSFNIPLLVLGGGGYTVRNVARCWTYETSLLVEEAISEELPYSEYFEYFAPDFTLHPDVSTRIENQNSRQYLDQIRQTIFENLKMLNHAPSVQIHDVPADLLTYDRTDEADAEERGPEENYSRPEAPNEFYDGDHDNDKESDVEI
Lypla1: Acyl-protein thioesterase 1 (Lypla1, Mus musculus, UniProt P97823)
Sequence of UniProt P97823 (whole entry, looked up): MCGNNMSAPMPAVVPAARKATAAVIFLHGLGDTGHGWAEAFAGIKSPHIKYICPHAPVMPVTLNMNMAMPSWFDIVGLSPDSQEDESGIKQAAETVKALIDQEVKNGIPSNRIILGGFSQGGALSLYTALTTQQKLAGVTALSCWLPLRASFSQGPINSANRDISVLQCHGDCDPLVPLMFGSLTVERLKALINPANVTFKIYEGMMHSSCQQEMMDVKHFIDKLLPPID
Breakpoint cluster region protein GAP domain: Breakpoint cluster region protein, GAP domain (Homo sapiens, UniProt P11274)
Sequence of UniProt P11274 (whole entry, looked up): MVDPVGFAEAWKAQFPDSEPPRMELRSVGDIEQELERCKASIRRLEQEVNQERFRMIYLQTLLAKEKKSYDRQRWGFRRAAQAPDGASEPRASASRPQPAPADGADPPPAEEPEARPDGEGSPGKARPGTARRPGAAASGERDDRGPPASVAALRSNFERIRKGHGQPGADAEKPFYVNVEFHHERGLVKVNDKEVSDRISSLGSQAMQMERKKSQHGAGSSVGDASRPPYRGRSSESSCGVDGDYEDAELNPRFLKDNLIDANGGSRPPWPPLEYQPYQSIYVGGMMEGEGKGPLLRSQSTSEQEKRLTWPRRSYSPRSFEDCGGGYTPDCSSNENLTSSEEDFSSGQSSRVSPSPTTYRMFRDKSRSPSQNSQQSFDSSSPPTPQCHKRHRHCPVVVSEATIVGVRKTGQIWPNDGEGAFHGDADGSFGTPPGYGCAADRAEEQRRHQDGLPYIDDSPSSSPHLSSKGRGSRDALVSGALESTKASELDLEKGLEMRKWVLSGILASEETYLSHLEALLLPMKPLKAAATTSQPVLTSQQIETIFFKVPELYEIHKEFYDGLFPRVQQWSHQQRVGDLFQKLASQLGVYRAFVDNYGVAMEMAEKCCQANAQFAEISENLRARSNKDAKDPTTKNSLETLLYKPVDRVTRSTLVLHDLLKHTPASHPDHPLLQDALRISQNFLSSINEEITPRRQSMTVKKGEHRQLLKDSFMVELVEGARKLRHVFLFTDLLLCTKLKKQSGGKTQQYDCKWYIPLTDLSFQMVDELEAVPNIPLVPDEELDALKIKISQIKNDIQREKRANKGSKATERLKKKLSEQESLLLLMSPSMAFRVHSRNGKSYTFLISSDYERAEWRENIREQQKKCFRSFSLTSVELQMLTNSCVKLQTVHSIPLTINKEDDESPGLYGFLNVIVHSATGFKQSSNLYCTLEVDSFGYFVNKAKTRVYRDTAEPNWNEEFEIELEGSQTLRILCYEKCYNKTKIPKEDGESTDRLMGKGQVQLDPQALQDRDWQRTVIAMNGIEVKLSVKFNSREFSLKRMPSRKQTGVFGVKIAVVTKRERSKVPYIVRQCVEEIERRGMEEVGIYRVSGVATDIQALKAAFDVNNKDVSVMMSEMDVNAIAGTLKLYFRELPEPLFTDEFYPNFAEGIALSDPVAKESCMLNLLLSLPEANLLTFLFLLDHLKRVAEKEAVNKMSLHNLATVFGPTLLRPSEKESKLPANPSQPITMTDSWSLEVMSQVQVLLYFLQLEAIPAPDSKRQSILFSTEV
PARP2: Poly [ADP-ribose] polymerase 2 (PARP2, Homo sapiens, UniProt Q9UGN5)
Sequence of UniProt Q9UGN5 (whole entry, looked up): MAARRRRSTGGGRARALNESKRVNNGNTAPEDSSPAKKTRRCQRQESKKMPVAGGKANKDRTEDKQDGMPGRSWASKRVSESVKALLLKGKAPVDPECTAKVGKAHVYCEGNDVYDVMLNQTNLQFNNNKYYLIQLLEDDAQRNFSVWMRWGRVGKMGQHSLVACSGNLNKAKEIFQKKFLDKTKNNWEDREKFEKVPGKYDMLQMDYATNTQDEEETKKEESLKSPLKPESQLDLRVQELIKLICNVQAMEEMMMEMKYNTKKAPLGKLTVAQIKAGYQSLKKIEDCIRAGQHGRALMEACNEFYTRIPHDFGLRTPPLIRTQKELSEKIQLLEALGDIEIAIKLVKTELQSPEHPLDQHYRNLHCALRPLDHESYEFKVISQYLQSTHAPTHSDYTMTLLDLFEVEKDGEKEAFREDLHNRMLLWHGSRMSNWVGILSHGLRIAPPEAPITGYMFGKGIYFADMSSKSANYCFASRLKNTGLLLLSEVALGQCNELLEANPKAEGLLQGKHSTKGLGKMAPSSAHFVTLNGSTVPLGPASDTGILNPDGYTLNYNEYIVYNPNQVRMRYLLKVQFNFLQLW
CXCR2: C-X-C chemokine receptor type 2 (CXCR2, Homo sapiens, UniProt P25025)
Sequence of UniProt P25025 (whole entry, looked up): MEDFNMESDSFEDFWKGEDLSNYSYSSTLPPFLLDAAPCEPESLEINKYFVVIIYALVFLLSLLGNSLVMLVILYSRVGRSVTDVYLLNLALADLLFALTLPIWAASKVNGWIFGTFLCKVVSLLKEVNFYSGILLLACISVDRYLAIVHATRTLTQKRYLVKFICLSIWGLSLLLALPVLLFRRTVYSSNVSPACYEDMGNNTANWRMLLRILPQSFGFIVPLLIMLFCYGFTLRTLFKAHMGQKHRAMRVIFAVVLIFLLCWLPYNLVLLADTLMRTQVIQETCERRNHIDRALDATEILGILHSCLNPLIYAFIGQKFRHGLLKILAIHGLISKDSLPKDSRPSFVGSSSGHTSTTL
DRD4: D(4) dopamine receptor (DRD4, Homo sapiens, UniProt P21917)
Sequence of UniProt P21917 (whole entry, looked up): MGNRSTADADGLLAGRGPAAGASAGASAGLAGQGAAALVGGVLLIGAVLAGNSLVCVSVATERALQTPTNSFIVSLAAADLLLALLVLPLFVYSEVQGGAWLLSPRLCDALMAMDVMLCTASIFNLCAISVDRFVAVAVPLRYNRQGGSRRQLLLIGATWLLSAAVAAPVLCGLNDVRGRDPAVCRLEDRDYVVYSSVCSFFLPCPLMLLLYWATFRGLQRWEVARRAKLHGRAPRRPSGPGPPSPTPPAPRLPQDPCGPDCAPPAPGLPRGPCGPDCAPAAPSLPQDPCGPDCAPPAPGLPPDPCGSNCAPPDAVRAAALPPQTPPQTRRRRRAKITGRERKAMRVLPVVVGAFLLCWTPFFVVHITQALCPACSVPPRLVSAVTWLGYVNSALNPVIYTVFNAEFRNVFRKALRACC
sn-1-specific diacylglycerol lipase ABHD11: sn-1-specific diacylglycerol lipase ABHD11 (Mus musculus, UniProt Q8K4F5)
Sequence of UniProt Q8K4F5 (whole entry, looked up): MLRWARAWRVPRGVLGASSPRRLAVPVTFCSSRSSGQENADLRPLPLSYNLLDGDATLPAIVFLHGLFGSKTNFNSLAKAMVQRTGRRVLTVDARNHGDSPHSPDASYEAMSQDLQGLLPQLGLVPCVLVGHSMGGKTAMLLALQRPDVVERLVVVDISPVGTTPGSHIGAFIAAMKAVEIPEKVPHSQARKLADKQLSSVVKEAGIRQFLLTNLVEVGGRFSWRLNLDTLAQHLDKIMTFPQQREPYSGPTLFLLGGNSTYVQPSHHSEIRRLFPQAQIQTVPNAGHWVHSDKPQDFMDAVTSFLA
Neutral cholesterol ester hydrolase 1: Neutral cholesterol ester hydrolase 1 (Mus musculus, UniProt Q8BLF1)
Sequence of UniProt Q8BLF1 (whole entry, looked up): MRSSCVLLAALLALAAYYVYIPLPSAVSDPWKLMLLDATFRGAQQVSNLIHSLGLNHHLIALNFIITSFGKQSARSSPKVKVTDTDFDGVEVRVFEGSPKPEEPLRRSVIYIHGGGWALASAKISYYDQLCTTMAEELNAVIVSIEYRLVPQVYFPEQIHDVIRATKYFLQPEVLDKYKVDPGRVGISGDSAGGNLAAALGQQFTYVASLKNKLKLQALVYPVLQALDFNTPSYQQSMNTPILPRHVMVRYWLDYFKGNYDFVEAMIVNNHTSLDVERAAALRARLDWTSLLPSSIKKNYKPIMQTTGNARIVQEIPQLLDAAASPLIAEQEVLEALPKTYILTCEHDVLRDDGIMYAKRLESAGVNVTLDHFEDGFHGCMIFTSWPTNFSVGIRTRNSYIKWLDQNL
Sequence of UniProt Q9HAN9 (whole entry, looked up): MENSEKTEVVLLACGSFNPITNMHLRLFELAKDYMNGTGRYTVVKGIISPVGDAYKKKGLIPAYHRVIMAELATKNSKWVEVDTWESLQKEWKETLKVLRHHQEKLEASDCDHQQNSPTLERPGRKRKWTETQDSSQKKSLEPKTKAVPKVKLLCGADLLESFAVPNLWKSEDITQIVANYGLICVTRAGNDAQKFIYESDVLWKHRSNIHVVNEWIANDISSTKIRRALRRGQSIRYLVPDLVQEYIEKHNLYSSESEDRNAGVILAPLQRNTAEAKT

With `OCC1OC(n2cnc3c(NCc4ccc(Br)s4)ncnc32)C(O)C1O` (stereo not drawn) the inhibition was 63% (SLC29A1 (Homo sapiens, UniProt Q99808); ligand displacement, radioligand; 0.3 µM).
The inhibition of `COc1ccc2nc(C)ccc2c1Nc1sn(C)c(=O)c1C#N` is reported as 67% (NMNAT1 (Homo sapiens, UniProt Q9HAN9); enzyme activity, inhibitor; 10 µM).
`CC(C)Cn1c(SCC(=O)N2CCc3ccccc3C2)nc2cc(Cl)ccc2c1=O` has an inhibition of -15% (ADRA1A (Homo sapiens, UniProt P35348); ligand displacement, radioligand; 10 µM).
For `COc1ccc(C[C@H](NC(=O)Cc2cccc(Oc3ccccc3)c2)C(=O)N[C@@H](Cc2c[nH]c3ccccc23)C(=O)NCc2ccc(C)cc2)cc1OC`, the inhibition was 16% (PLAT; enzyme activity, inhibitor; 100 µM).
`Cc1c(COc2cc(OCc3cccc(C#N)c3)c(CNC(C)(CO)CO)cc2Cl)cccc1-c1cccc(OCc2ccc(/C=C/C(=O)NO)cc2)c1` has an inhibition of 36.9% (HDAC3; enzyme activity, inhibitor; 1 µM).
`CCCCCCC#Cc1cncc(-c2nnc(SCc3ccc(Cl)cc3)n2C)c1` gave an inhibition of 6% (mraY (Staphylococcus aureus, UniProt Q2FZ93); enzyme activity, inhibitor; 100 µM).
`CC(=O)O[C@@]1(C)CN(Cc2ccccc2)[C@H]2C[C@@H]1CC(=O)[C@@H]2C` gave an inhibition of 0% (OPRK1 (Cavia porcellus, UniProt P41144); binding, radioligand binding; guinea pig brain; 1 µM, together with: [3H]U-69,593).
`O=C(N(c1ccccc1)c1ccccc1)n1ccnn1` gave an inhibition of under 50% (Lypla1; 1 µM).
With `Cc1c(COc2cc(OCc3cccc(C#N)c3)c(CNC(C)(CO)CO)cc2Cl)cccc1-c1cccc(OCCCCCC(=O)NO)c1` the inhibition was 91.5% (HDAC3; enzyme activity, inhibitor; 1 µM).
For `CCCCCCCCCCCCCCN(O)C(=O)CCCCC[C@@H]1NC(=O)[C@H]([C@@H](C)CC)NC(=O)[C@H](Cc2ccccc2C(F)(F)F)NC(=O)CCSCc2cccc(n2)CSCCCNC1=O`, the inhibition was 45% (HDAC3; enzyme activity, inhibitor, fluorogenic; 30 µM).
`Cc1c(COc2cc(OCc3cccc(C#N)c3)c(CNC(CO)(CO)CO)cc2Cl)cccc1-c1cccc(OCCCCCC(=O)NO)c1` gave an inhibition of 92.2% (HDAC3; enzyme activity, inhibitor; 1 µM).
For `C[C@H](NC(=O)[C@H](CC(=O)NCC(C)(C)C)NC(=O)CCc1ccccc1)C(=O)NCc1ccccc1Cl`, the inhibition was 17% (PLAT; enzyme activity, inhibitor; 100 µM).
`CCOC(=O)C(Sc1nnc(-c2c[nH]c3ccccc23)n1C)C(=O)OCC` gave an inhibition of 41.3% (Breakpoint cluster region protein GAP domain; GAP activity; 10 µM, selectivity counter screen).
`O=C1c2sc(-c3ccc(N4CCC(CO)CC4)nc3F)nc2CCN1c1cccnc1` has an inhibition of -7% (ADORA2B (Homo sapiens, UniProt P29275); ligand displacement, radioligand; 1 µM).
The inhibition of `CCOC(=O)c1cnc2c(C)cc(C)cc2c1NCCCN(C)C` is reported as 3.59% (Breakpoint cluster region protein GAP domain; GAP activity; 10 µM, selectivity counter screen).
With `CN(C(=O)n1ccnn1)c1ccccc1` the inhibition was under 50% (Lypla1; 1 µM).
`C[Si]1(C[C@H](CN)CC(=O)O)CCCC1` gave an inhibition of 8% (L-type calcium channel, rat; binding, radioligand binding; 70 µM).
`Cc1cc(C(=O)NCCNC(=O)c2cccc(COc3ccccc3C(N)=O)c2)n[nH]1` has an inhibition of 99% (PARP2; enzyme activity, inhibitor; 50 nM).
With `Cc1nc2c(F)cc(-c3nc(Nc4ccc(CNC(=O)CCCCCCC(=O)NO)cc4)ncc3F)cc2n1C(C)C` the inhibition was 57% (MOK (Homo sapiens, UniProt Q9UQ07); enzyme activity, inhibitor; 1 µM).
With `C=CC(=O)Nc1cccc(-c2cnc3[nH]cc(C(=O)NC(C)(C)C)c3n2)c1` the inhibition was 9% (Tyrosine-protein kinase Lyn, isoform B (LYN, Homo sapiens, UniProt P07948); enzyme activity, inhibitor; 0.1 µM).
`O=C(O)C1Nc2ccc(Br)cc2C2C=CCC12` (stereo not drawn) gave an inhibition of 74.2% (Breakpoint cluster region protein GAP domain; GAP activity; 10 µM, selectivity counter screen).
For `CCC(=O)N(C)c1ccc(Cl)c(Cl)c1`, the inhibition was under 10% (CXCR2; ligand displacement, radioligand; 10 µM).
With `CS(=O)(=O)Nc1cccc(-c2csc3cnc(Nc4ccc(N5CCN(CCCCCOc6cccc7c6C(=O)N(C6CCC(=O)NC6=O)C7=O)CC5)cc4)nc23)c1` (stereo not drawn) the inhibition was -7.12% (PRKDC (Homo sapiens, UniProt P78527); target engagement in cells, inhibitor, chemoproteomics; MOLT-4; 1 µM).
The inhibition of `Cc1c(COc2cc(OCc3cccc(C#N)c3)c(CN3CCCC[C@@H]3C(=O)O)cc2Cl)cccc1-c1cccc(OCc2ccc(C(=O)NO)cc2)c1` is reported as 50.5% (HDAC3; enzyme activity, inhibitor; 1 µM).
`CN1CC[C@@H](COc2cnc(C#N)cc2-c2ccn3nc(NC(=O)C4CC4)cc3c2)C1` gave an inhibition of -2% (PIP4K2A (Homo sapiens, UniProt P48426); enzyme activity, inhibitor; 1 µM).
`O=C(CC1CC2CCC1C2)NCCNC(=O)Cn1c(=O)[nH]c(=O)c2ccccc21` (stereo not drawn) gave an inhibition of 100% (PARP2; enzyme activity, inhibitor; 0.104 µM).
With `COc1ccc(CN2CC(COc3ncc(C)s3)CC(F)(F)C2)cc1F` (stereo not drawn) the inhibition was 16% (DRD4; ligand displacement, radioligand; 10 µM).
The inhibition of `CO[C@@H](C)c1c(NC(=O)Nc2cnc(-n3nccn3)c(C(F)(F)F)c2)cnc2sc(C)nc12` is reported as 9.7% (CXCR2; ligand displacement, radioligand; 10 µM).
`O=C(n1ccnn1)n1c2ccccc2c2ccccc21` has an inhibition of under 50% (sn-1-specific diacylglycerol lipase ABHD11; serine hydrolase activity, inhibitor, competitive gel-based ABPP; mouse T-cell proteome; 1 µM, 30 min, 37 °C).
The inhibition of `Cc1c(COc2cc(OCc3cccc(C#N)c3)c(CNCCO)cc2Cl)cccc1-c1cccc(OCCCCCC(=O)NO)c1` is reported as 88.2% (HDAC3; enzyme activity, inhibitor; 1 µM).
`Cc1ccc(CNC(=O)[C@H](CCc2ccccc2)NC(=O)[C@H](CCc2ccccc2)NC(=O)Cc2cccc(Oc3ccccc3)c2)cc1` gave an inhibition of 14% (PLAT; enzyme activity, inhibitor; 100 µM).
`Cc1cccc(O[C@H]2CCC[C@@H](C(C)CNCc3ccncc3)C2)c1` (relative stereo) gave an inhibition of -1% (SPHK1 (Homo sapiens, UniProt Q9NYA1); enzyme activity, inhibitor; 10 µM).
For `Cc1c(OS(=O)(=O)Oc2ccc(C(C)C)cc2)cccc1C(=O)NO`, the inhibition was 17% (HDAC8 (Homo sapiens, UniProt Q9BY41); enzyme activity, inhibitor, fluorescence; 10 µM).
`O=C(CCCc1ccc2c(c1)OCCO2)NCCNC(=O)Cn1c(=O)[nH]c(=O)c2ccccc21` gave an inhibition of 60% (PARP2; enzyme activity, inhibitor; 50 nM).
`CN1CCN(C(=O)n2ccnn2)CC1` gave an inhibition of under 50% (sn-1-specific diacylglycerol lipase ABHD11; serine hydrolase activity, inhibitor, competitive gel-based ABPP; mouse T-cell proteome; 1 µM, 30 min, 37 °C).
With `O=C(Nc1ccc(C(F)F)cc1)[C@H](CC1CCCCC1)Nc1nn2c(=O)ccnc2s1` the inhibition was -2% (DUSP22 (Homo sapiens, UniProt Q9NRW4); enzyme activity, inhibitor; 10 µM).
`C[Si](C)(C)C[C@H](CN)CC(=O)O` gave an inhibition of 3% (L-type calcium channel, rat; binding, radioligand binding; 250 µM, together with: [3H](-)-desmethoxyverapamil).
For `O=C1c2sc(-c3ccc(N4CCC(F)C4)nc3F)nc2CCN1c1cccnc1` (stereo not drawn), the inhibition was 3% (HTR6 (Homo sapiens, UniProt P50406); ligand displacement, radioligand; 1 µM).
`COc1ccc(CN2CC(COc3nc4ccccc4s3)CC(F)(F)C2)cc1F` (stereo not drawn) gave an inhibition of 11% (DRD4; ligand displacement, radioligand; 10 µM).
`CC(=O)c1cnc(N)nc1N1CC[C@H]1c1nn2ccc(Cl)c2c(=O)n1-c1ccccc1` gave an inhibition of 10% (GALR2 (Homo sapiens, UniProt O43603); ligand displacement, radioligand; 10 µM).
The inhibition of `C=CCN(CC=C)C(=O)n1ccnn1` is reported as under 50% (Lypla1; 1 µM).
The inhibition of `CN(Cc1ccc(/C=C/C(=O)NO)cc1)CC12CC3CC(CC(C3)C1)C2` is reported as 3% (human EP4 receptor; agonist radioligand binding; 0.05 µM).
For `C/C=C/C(=O)Nc1ccc2nc(NCCCCCN(C)C)nc(NCCCCCCN(C)C)c2c1`, the inhibition was 1% (DNMT1 (Homo sapiens, UniProt P26358); enzyme activity, inhibitor, radiometric; 50 µM).
`Cn1c(CNc2ccccc2Cl)nc2ccccc21` gave an inhibition of 36% (Breakpoint cluster region protein GAP domain; GAP activity; 10 µM, selectivity counter screen).
With `CCCCCCCCCCCCCCCC(=O)N[C@@H](CCCCN)C(=O)N[C@@H](CCCCN)C(=O)N[C@@H](CO)C(=O)N[C@@H](CCCNC(=N)N)C(=O)N[C@@H](C)C(=O)N[C@@H](CC(C)C)C(=O)N[C@@H](Cc1ccccc1)C(N)=O` the inhibition was 11% (F2R (Homo sapiens, UniProt P25116); platelet aggregation, antagonist, light transmittance aggregometry; human, platelet-rich plasma ex vivo; 0.3 mg/kg, 24 h or discharge, together with: SFLLRN 20 µM; relative to: baseline).
`O=C(N1CCCC1)n1ccnn1` has an inhibition of under 50% (Neutral cholesterol ester hydrolase 1; probe labeling, inhibitor, gel-based competitive ABPP; mouse T-cell proteome; 1 µM, 30 min, 37 °C).
`COc1cc(-c2cn(C)c(=O)c3cnccc23)cc(OC)c1CN(C)C` has an inhibition of 87.4% (BRD7 (Homo sapiens, UniProt Q9NPI1); 1 µM).
`N#Cc1c(Nc2ccccc2C(F)(F)F)s[nH]c1=O` gave an inhibition of 41% (PARP1 (Homo sapiens, UniProt P09874); enzyme activity, inhibitor; 10 µM).
`O=C(N1CCOCC1)n1ccnn1` gave an inhibition of under 50% (Neutral cholesterol ester hydrolase 1; probe labeling, inhibitor, gel-based competitive ABPP; mouse T-cell proteome; 1 µM, 30 min, 37 °C).
The inhibition of `Cc1csc(OCC2CN(Cc3ncc4ccccn34)CCC2(F)F)n1` (stereo not drawn) is reported as -2.8% (DRD4; ligand displacement, radioligand; 10 µM).
`Cc1c(COc2cc(OCc3cccc(C#N)c3)c(CNC(CO)CO)cc2Cl)cccc1-c1cccc(OCc2ccc(C(=O)NO)cc2)c1` has an inhibition of 28.4% (HDAC3; enzyme activity, inhibitor; 1 µM).
